# Assay results pooled from the literature.
# Parts stem from different laboratories: compare values within a part only. Substitutions count along the parent as printed.

# Study 1 — target: CCNE1, cyclin fold, Cln2 fusion (human); technique: yeast growth competition, sequencing; medium: yeast; notes: weak parent motif; baseline: not given; reading: higher = stronger binding
# Starting sequence: FZR1 docking peptide (human); QDYERRLLRQIVI
Change,normalised enrichment score
R9A,-0.221
Y3A,0.726
E4A,1.09
L8F,-0.0394
R6A,0.38
Q10A,0.589
R5K L8F,0.321
R5A L7A,0.021
I13A,0.000512
R5A,0.158

# Study 2 — technique: protein-binding microarray; form: hairpin DNA; medium: in vitro; concentration: not given; baseline: not given; reading: higher = stronger binding
# Target: Krueppel-like factor 3, full length (KLF3, Homo sapiens, UniProt P57682, residues 1-345)
# Chain of UniProt P57682 (whole entry, looked up): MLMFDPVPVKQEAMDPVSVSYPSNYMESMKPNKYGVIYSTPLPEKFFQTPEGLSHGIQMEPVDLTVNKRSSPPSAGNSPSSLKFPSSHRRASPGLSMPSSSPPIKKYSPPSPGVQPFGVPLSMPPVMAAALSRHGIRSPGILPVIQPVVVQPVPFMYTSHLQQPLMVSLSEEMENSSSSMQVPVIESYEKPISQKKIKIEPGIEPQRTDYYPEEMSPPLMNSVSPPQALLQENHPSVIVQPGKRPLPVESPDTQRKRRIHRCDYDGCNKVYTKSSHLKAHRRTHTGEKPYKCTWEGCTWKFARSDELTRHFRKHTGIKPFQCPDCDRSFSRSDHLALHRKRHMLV
# Notes: whole hairpin DNA, median over replicate spots
Sequence,median fluorescence
GAGGCCGACCACGCGCAGCCTCCTGGCTGCGCGTGGTCGGCCTCACACTC (5mC at 14 30),22500 a.u.
GAGGCCGACCACGCGCAGCCTCCTGGCTGCGCGTGGTCGGCCTCACACTC (5mC at 14),26800 a.u.
GAGGCCGGCCACGCCCAGCCTCCTGGCTGGGCGTGGCCGGCCTCACACTC (5mC at 37),9330 a.u.
GAGGCCGACCAAGCCCAGCCTCCTGGCTGGGCTTGGTCGGCCTCACACTC,7680 a.u.
GAGGCCGACCGCGCCGAGCCTCCTGGCTCGGCGCGGTCGGCCTCACACTC (5mC at 29),8620 a.u.
GAGGCCGACCGCGCCCAGCCTCCTGGCTGGGCGCGGTCGGCCTCACACTC (5mC at 12 32 34),8730 a.u.
GAGGCCGCCCACGCCCAGCCTCCTGGCTGGGCGTGGGCGGCCTCACACTC,9410 a.u.
GAGGCCGACCGCGCCCAGCCTCCTGGCTGGGCGCGGTCGGCCTCACACTC (5mC at 10 12 34),8220 a.u.
GAGGCCGCGCACGCCCAGCCTCCTGGCTGGGCGTGCGCGGCCTCACACTC,10600 a.u.
GAGGCCGACCGCCGCCAGCCTCCTGGCTGGCGGCGGTCGGCCTCACACTC (5mC at 31),8340 a.u.
GAGGCCGACCACGCCCAGCCTCCTGGCTGGGCGTGGTCGGCCTCACACTC (5mC at 9),15000 a.u.
GAGGCCGCCCGCGCCCAGCCTCCTGGCTGGGCGCGGGCGGCCTCACACTC,9240 a.u.
GAGGCCGACCGCGGCCAGCCTCCTGGCTGGCCGCGGTCGGCCTCACACTC (5mC at 31),8190 a.u.
GAGGCCGACCGCGCCCAGCCTCCTGGCTGGGCGCGGTCGGCCTCACACTC (5mC at 10 32),8760 a.u.
GAGGCCGAACGCGCCCAGCCTCCTGGCTGGGCGCGTTCGGCCTCACACTC,8270 a.u.
GAGGCCGACCACCCCCAGCCTCCTGGCTGGGGGTGGTCGGCCTCACACTC (5mC at 13),8810 a.u.
GAGGCCAACCGCGCCCAGCCTCCTGGCTGGGCGCGGTTGGCCTCACACTC,8550 a.u.
GAGGCCGACCGCGCCCGGCCTCCTGGCCGGGCGCGGTCGGCCTCACACTC (5mC at 16 28),9060 a.u.
GAGGCCGCGCGCGCCCAGCCTCCTGGCTGGGCGCGCGCGGCCTCACACTC (5mC at 8 36),9930 a.u.

# Study 3 — technique: aptamer microarray, sandwich; form: DNA with 2'F-ANA; medium: in vitro; concentration: 200 nM; together with: Cy3 exosite-II aptamer, 400 nM; reading: higher = stronger binding; sequence: GGTTGGTGTGGTTGG
# Target: Prothrombin, mature alpha-thrombin (F2, Homo sapiens, UniProt P00734)
# Notes: whole 15-mer aptamer, many near background
Modification,mean fluorescence intensity [a.u.]
2'F-ANA at 4 5 6 7 9 12 15,123
2'F-ANA at 1 6 12 13 14 15,67
2'F-ANA at 1 2 3 8 9 10 11 14,52.4
2'F-ANA at 3 4 5 6 9 11 12 15,129
2'F-ANA at 6 7 8 9 10 11,154
2'F-ANA at 1 6 7 9 10 12,66.2
2'F-ANA at 1 2 5 6 7 8 10 11 14 15,50
2'F-ANA at 1 3 6 8 11 15,447
2'F-ANA at 2 7 8 11 12 13 15,588
2'F-ANA at 3 5 7 10 11 12 14,51.4
2'F-ANA at 3 4 5 7 8 10 11 12 14,52
2'F-ANA at 2 4 5 7 8 10 11 14,45.9
2'F-ANA at 2 8 13 14 15,140
2'F-ANA at 1 2 3 4 5 6 8 13 14 15,42.7
2'F-ANA at 1 3 4 5 6 8 11 12 14,86.3
2'F-ANA at 1 2 4 11 14 15,54.6
2'F-ANA at 2 3 5 10 14 15,47.6
2'F-ANA at 2 3 6 7 9 11 12 15,769

# Study 4 — technique: DHFR PCA, deep sequencing; medium: yeast; together with: (+)-ABA 17 µM; baseline: wild-type fitted maximum; reading: higher = stronger binding
# Target: ABI1, truncated, D143A, DHFR fusion (Arabidopsis thaliana)
# Notes: methotrexate growth selection, single substitutions
# Starting sequence: PYL1, truncated, DHFR fusion (Arabidopsis thaliana); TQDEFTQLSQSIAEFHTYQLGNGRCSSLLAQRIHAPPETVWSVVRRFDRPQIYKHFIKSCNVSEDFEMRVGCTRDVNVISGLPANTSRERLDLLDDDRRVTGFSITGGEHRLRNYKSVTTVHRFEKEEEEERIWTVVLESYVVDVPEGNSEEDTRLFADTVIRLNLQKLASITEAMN
Change,relative binding score
L20N,84.4%
I57F,-13.8%
T39V,88.8%
H34A,86.8%
H122A,13.3%
V145H,-4.77%
F56P,7.14%
S140A,-10.6%
R163E,35.4%
D96Y,11.1%
T86N,81.6%
A30F,84.2%
N61K,90.5%
S42A,84.9%
L112Y,-4.65%
S104M,8.07%
R45T,0.745%
S150C,69.8%

# Study 5 — target: UBE2N UBC core domain (UniProt P61088); technique: yeast two-hybrid; medium: yeast; notes: mostly zero background; baseline: not given; reading: higher = stronger interaction
# B1: NSMCE1 RING domain (UniProt Q8WV22); chain RETYPDAVKICNICHSLLIQGQSCETCGIRMHLPCVAKYFQSNAEPRCPHCNDYWPHEIPKV
# B2: TRIM10 RING domain (UniProt Q9UDY6); chain SVTSLADEVNCPICQGTLREPVTIDCGHNFCRACLTRYCEIPGPDLEESPTCPLCKEPFRPGSFRP
# B3: RNF4 RING domain (UniProt P78317); chain TGLRPSGTVSCPICMDGYSEIVQNGRLIVSTECGHVFCSQCLRDSLKNANTCPTCRKKINHKRYHP
# B4: TRIM35 RING domain (UniProt Q9UPQ4); chain PSRSFKEELLCAVCYDPFRDAVTLRCGHNFCRGCVSRCWEVQVSPTCPVCKDRASPADLRT
# B5: PEX2 RING domain (UniProt P28328); chain DNTLATSGKECALCGEWPTMPHTIGCEHIFCYFCAKSSFLFDVYFTCPKCGTEVHSLQPLK
# B6: RNF32 RING domain (UniProt Q9H0A6); chain SLLQGDSVQPCPICKEEFELRPQVLLSCSHVFHKACLQAFEKFTNKKTCPLCRKNQYQTRVIH
# B7: TRIM55 RING domain (UniProt Q9BYV6); chain TMDNLEKQLICPICLEMFTKPVVILPCQHNLCRKCASDIFQASNPYLPTRGGTTMASGGRFRCPSCRHEVVLDRHG
# B8: UBE4A RING domain (UniProt Q14139); chain LQQQEEETYADACDEFLDPIMSTLMCDPVVLPSSRVTVDRSTIARHLLSDQTDPFNRSPLTMDQIRPNTELKEKIQRWLAERKQQKEQLE
# B9: TRIM38 RING domain (UniProt O00635); chain STKKMMEEATCSICLSLMTNPVSINCGHSYCHLCITDFFKNPSQKQLRQETFCCPQCRAPFHMDSLRP
# B10: MSL2 RING domain (UniProt Q9HCI7); chain LLPYFRQSLSCCVCGHLLQDPIAPTNSTCQHYVCKTCKGKKMMMKPSCSWCKDYEQFEENKQ
# Residues (chain): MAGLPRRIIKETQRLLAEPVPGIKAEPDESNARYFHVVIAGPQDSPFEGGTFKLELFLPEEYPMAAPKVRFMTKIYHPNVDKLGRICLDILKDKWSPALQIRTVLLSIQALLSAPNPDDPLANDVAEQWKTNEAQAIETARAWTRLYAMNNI
Molecule,lacZ reporter activity
ISNDSETLEECMVCSDMKRDTLFGPCGHIATCSLCSPRVKKCLICKEQVQSRTKIE (MIB1 RING domain (UniProt Q86YT6)),0
B1 (NSMCE1 RING domain),0
B2 (TRIM10 RING domain),0
B3 (RNF4 RING domain),0
B4 (TRIM35 RING domain),0
B5 (PEX2 RING domain),0
QLQDEEDDSLCRICMDAVIDCVLLECGHMVTCTKCGKRMSECPICRQYVVRAVHVF (RNF34 RING domain (UniProt Q969K3)),0
SYEDKSNDFVCPICFDMIEEAYMTKCGHSFCYKCIHQSLEDNNRCPKCNYVVDNIDHLY (COP1 RING domain (UniProt Q8NHY2)),0
B6 (RNF32 RING domain),0
LKQVSIRENCCSLCCDEVADTQLKPCGHSDLCMDCALQLETCPLCRKEIVSRIRQI (RSPRY1 RING domain (UniProt Q96DX4)),0
B7 (TRIM55 RING domain),0
KRQCSDVDDICSICQAEFQKPILLICQHIFCEECMTLWFNREKTCPLCRTVISDHINKW (RNFT1 RING domain (UniProt Q5M7Z0)),0
B8 (UBE4A RING domain),0
B9 (TRIM38 RING domain),0
B10 (MSL2 RING domain),0
MANWVFCNRCFQPPHRTSCFSLTNCGHVYCDACLGKGKKNECLICKAPCRTVLLSK (RNF212 RING domain (UniProt Q495C1)),0

# Excerpt of the above (study 3):
Modification,mean fluorescence intensity [a.u.]
2'F-ANA at 6 7 8 9 10 11,154
2'F-ANA at 1 6 7 9 10 12,66.2
2'F-ANA at 1 2 5 6 7 8 10 11 14 15,50
2'F-ANA at 1 3 6 8 11 15,447
2'F-ANA at 2 7 8 11 12 13 15,588
2'F-ANA at 3 5 7 10 11 12 14,51.4
2'F-ANA at 3 4 5 7 8 10 11 12 14,52
2'F-ANA at 2 4 5 7 8 10 11 14,45.9
